Results collected from several papers.
Each line is one published result; not all experiments were run side by side. ± marks the error that the study gave.
GLP1R: Glucagon-like peptide 1 receptor (GLP1R, Homo sapiens, UniProt P43220)

Structure (SMILES)	tested on	assay	test system	conditions	how to read	quantity	value
O=C(COP(=O)(O)O)[C@@H](O)[C@H](O)[C@H](O)COP(=O)(O)O	Nuclear pore complex protein Nup133 (NUP133, Homo sapiens, UniProt Q8WUM0)	thermal proteome profiling, refers to: NUP133	HepG2 cell lysate	concentration not given, 57 over 37 °C, mean	baseline: compound over control	thermal stability ratio	0.589
CC[C@H](C)[C@H](NC(=O)[C@H](Cc1ccccc1)NC(=O)[C@H](CCC(=O)O)NC(=O)[C@H](CCCNC(=N)N)NC(=O)[C@H](C)NC(=O)[C@H](C)NC(=O)[C@H](CCC(N)=O)NC(=O)[C@H](CCC(=O)O)NC(=O)[C@H](CCC(=O)O)NC(=O)[C@H](CC(C)C)NC(=O)[C@H](Cc1ccc(O)cc1)NC(=O)[C@H](CO)NC(=O)[C@H](CO)NC(=O)[C@@H](NC(=O)[C@H](CC(=O)O)NC(=O)[C@H](CO)NC(=O)[C@@H](NC(=O)[C@H](Cc1ccccc1)NC(=O)[C@@H](NC(=O)CNC(=O)[C@H](CCC(=O)O)NC(=O)[C@H](C)NC(=O)CCc1cnc[nH]1)[C@@H](C)O)[C@@H](C)O)C(C)C)C(=O)N[C@@H](C)C(=O)N[C@@H](Cc1c[nH]c2ccccc12)C(=O)N[C@@H](CC(C)C)C(=O)N[C@H](C(=O)N[C@@H](CCCNC(=N)N)C(=O)NCC(=O)N[C@@H](CCCNC(=N)N)C(=O)N[C@@H](CCCCNC(=O)COCCOCCNC(=O)COCCOCCNC(=O)CC[C@H](NC(=O)CCCCCCCCCCCCCCCCC(=O)O)C(=O)O)C(=O)NCC(=O)NCC(=O)N[C@@H](CO)C(=O)N[C@@H](CCCCNC(=O)[C@H](CCCCNC(=O)[C@H](CCCCNc1c(NCCCCCN(O)C(=O)CCC(=O)NCCCCCN(O)C(=O)CCC(=O)NCCCCCN(O)C(C)=O)c(=O)c1=O)Nc1c(NCCCCCN(O)C(=O)CCC(=O)NCCCCCN(O)C(=O)CCC(=O)NCCCCCN(O)C(C)=O)c(=O)c1=O)NC(=O)[C@H](CCCCNc1c(NCCCCCN(O)C(=O)CCC(=O)NCCCCCN(O)C(=O)CCC(=O)NCCCCCN(O)C(C)=O)c(=O)c1=O)Nc1c(NCCCCCN(O)C(=O)CCC(=O)NCCCCCN(O)C(=O)CCC(=O)NCCCCCN(O)C(C)=O)c(=O)c1=O)C(=O)O)C(C)C	GLP1R	agonist, CRE luciferase reporter	BHK cells	metal-free DFO conjugate, added: 1% HSA	baseline: parent peptide	fold potency loss	6.7
O=C(Nc1ccc([C@H]2[C@@H](F)[C@@H](F)C[C@@H](F)[C@H]2F)cc1)c1cn[nH]c1	–	–	cynomolgus liver microsomes	1 µM	–	hepatic clearance	7.4 mL/min/kg
CC[C@H](C)[C@H](NC(=O)[C@H](Cc1ccccc1)NC(=O)[C@H](CCC(=O)O)NC(=O)[C@H](CCCNC(=N)N)NC(=O)[C@H](C)NC(=O)[C@H](C)NC(=O)[C@H](CCC(N)=O)NC(=O)[C@H](CCC(=O)O)NC(=O)[C@H](CCC(=O)O)NC(=O)[C@H](CC(C)C)NC(=O)[C@H](Cc1ccc(O)cc1)NC(=O)[C@H](CO)NC(=O)[C@H](CO)NC(=O)[C@@H](NC(=O)[C@H](CC(=O)O)NC(=O)[C@H](CO)NC(=O)[C@@H](NC(=O)[C@H](Cc1ccccc1)NC(=O)[C@@H](NC(=O)CNC(=O)[C@H](CCC(=O)O)NC(=O)[C@H](C)NC(=O)CCc1cnc[nH]1)[C@@H](C)O)[C@@H](C)O)C(C)C)C(=O)N[C@@H](C)C(=O)N[C@@H](Cc1c[nH]c2ccccc12)C(=O)N[C@@H](CC(C)C)C(=O)N[C@H](C(=O)N[C@@H](CCCNC(=N)N)C(=O)NCC(=O)N[C@@H](CCCNC(=N)N)C(=O)N[C@@H](CCCCNC(=O)COCCOCCNC(=O)COCCOCCNC(=O)CC[C@H](NC(=O)CCCCCCCCCCCCCCCCC(=O)O)C(=O)O)C(=O)NCC(=O)NCC(=O)N[C@@H](CO)C(=O)N[C@@H](CCCCNc1c(NCCCCCN(O)C(=O)CCC(=O)NCCCCCN(O)C(=O)CCC(=O)NCCCCCN(O)C(C)=O)c(=O)c1=O)C(=O)NCC(=O)NCC(=O)N[C@@H](CO)C(=O)N[C@@H](CCCCNc1c(NCCCCCN(O)C(=O)CCC(=O)NCCCCCN(O)C(=O)CCC(=O)NCCCCCN(O)C(C)=O)c(=O)c1=O)C(=O)O)C(C)C	GLP1R	agonist, CRE luciferase reporter	BHK cells	metal-free DFO conjugate, added: 0% HSA	baseline: parent peptide	fold potency loss	5.8
Nc1nc2c(ncn2[C@@H]2O[C@H](COP(=O)(O)OP(=O)(O)O)[C@@H](OP(=O)(O)OP(=O)(O)O)[C@H]2O)c(=O)[nH]1	speC (Escherichia coli, UniProt P21169)	ITC	–	concentration not given	–	binding stoichiometry	1.14 ± 0.004
C[C@@H]1CCN(C(=O)CCl)[C@@H](C(N)=O)C1	human NEDD9 full length	LC-MS/MS peptide mapping	–	50 µM, 18 h	–	cysteine occupancy	24.3%
CC[C@H](C)[C@H](NC(=O)[C@H](Cc1ccccc1)NC(=O)[C@H](CCC(=O)O)NC(=O)[C@H](CCCNC(=N)N)NC(=O)[C@H](C)NC(=O)[C@H](C)NC(=O)[C@H](CCC(N)=O)NC(=O)[C@H](CCC(=O)O)NC(=O)[C@H](CCC(=O)O)NC(=O)[C@H](CC(C)C)NC(=O)[C@H](Cc1ccc(O)cc1)NC(=O)[C@H](CO)NC(=O)[C@H](CO)NC(=O)[C@@H](NC(=O)[C@H](CC(=O)O)NC(=O)[C@H](CO)NC(=O)[C@@H](NC(=O)[C@H](Cc1ccccc1)NC(=O)[C@@H](NC(=O)CNC(=O)[C@H](CCC(=O)O)NC(=O)[C@H](C)NC(=O)CCc1cnc[nH]1)[C@@H](C)O)[C@@H](C)O)C(C)C)C(=O)N[C@@H](C)C(=O)N[C@@H](Cc1c[nH]c2ccccc12)C(=O)N[C@@H](CC(C)C)C(=O)N[C@H](C(=O)N[C@@H](CCCCNC(=O)COCCOCCNC(=O)COCCOCCNC(=O)CC[C@H](NC(=O)CCCCCCCCCCCCCCCCC(=O)O)C(=O)O)C(=O)NCC(=O)N[C@@H](CCCNC(=N)N)C(=O)N[C@@H](CCCCNc1c(NCCCCCN(O)C(=O)CCC(=O)NCCCCCN(O)C(=O)CCC(=O)NCCCCCN(O)C(C)=O)c(=O)c1=O)C(=O)NCC(=O)NCC(=O)N[C@@H](CO)C(=O)N[C@@H](CCCCNc1c(NCCCCCN(O)C(=O)CCC(=O)NCCCCCN(O)C(=O)CCC(=O)NCCCCCN(O)C(C)=O)c(=O)c1=O)C(=O)NCC(=O)NCC(=O)N[C@@H](CO)C(=O)N[C@@H](CCCCNc1c(NCCCCCN(O)C(=O)CCC(=O)NCCCCCN(O)C(=O)CCC(=O)NCCCCCN(O)C(C)=O)c(=O)c1=O)C(=O)O)C(C)C	GLP1R	agonist, CRE luciferase reporter	BHK cells	Zr-loaded DFO conjugate, added: 1% HSA	baseline: parent peptide	fold potency loss	3.3
CC[C@H](C)[C@@H]1NC(=O)[C@H]([C@@H](C)O)NC(=O)[C@@H]2CCCN2C(=O)[C@H](CC(C)C)NC(=O)[C@H](Cc2ccc(O)cc2)NC(=O)CSC[C@@H](C(N)=O)NC(=O)[C@H](CC(C)C)NC(=O)[C@@H]2CCCN2C(=O)[C@H](Cc2c[nH]cn2)NC(=O)[C@H](Cc2c[nH]c3ccccc23)NC(=O)[C@H](CC(C)C)NC(=O)[C@H](Cc2c[nH]cn2)NC(=O)CNC(=O)[C@H](C(C)C)NC(=O)CNC(=O)[C@H]([C@@H](C)O)NC1=O	Vacuolar protein sorting-associated protein 29 (VPS29, Homo sapiens, UniProt Q9UBQ0)	binding, ITC	–	25 °C, protein alone	–	-TΔS	1.6 ± 0.9 kcal/mol
CCCCC[C@H](O)/C=C/[C@H]1[C@H](O)CC(=O)[C@@H]1C/C=C\CCCC(=O)O	PTGER1 (Homo sapiens, UniProt P34995, L125A)	IP1 accumulation, agonist	AD293	1 h, EP1 L125A mutant	–	Emax	69.8 ± 5.62%
CC[C@H](C)[C@H](NC(=O)[C@H](Cc1ccc(O)cc1)NC(=O)[C@@H](N)CCC(N)=O)C(=O)N[C@@H](CC(C)C)C(=O)N[C@@H](CC(N)=O)C(=O)N[C@@H](C)C(=O)N[C@@H](CC(N)=O)C(=O)N[C@@H](CC(N)=O)C(=O)N[C@@H](CC(C)C)C(=O)N[C@H](C(=O)N[C@H](C(=O)N[C@@H](CCC(N)=O)C(=O)N[C@@H](Cc1ccccc1)C(=O)N[C@H](C(=O)N[C@H](C(=O)N[C@@H](CCCNC(=N)N)C(=O)N[C@@H](CC(C)C)C(=O)N[C@@H](CO)C(=O)N[C@@H](C)C(=O)N[C@H](C(=O)O)C(C)C)[C@@H](C)O)[C@@H](C)O)[C@@H](C)CC)[C@@H](C)CC	ADP-F-actin (rabbit)	binding	–	5 µM, 30 min, msfGFP-tagged peptide, added: 3 µM ADP-F-actin	–	fraction bound to F-actin	~60%
OC[C@H]1OC(O)[C@H](O)[C@@H](O)[C@@H]1O (stereo partly drawn)	Hexokinase-3 (HK3, Homo sapiens, UniProt P52790, D264A/R265A)	substrate inhibition	–	mutant D264A/R265A, partial substrate inhibition model, added: ATP 20 mM	–	kcat	49 ± 24 s⁻¹
Nc1ncnc2c1ncn2[C@@H]1O[C@H](COP(=O)(O)OP(=O)(O)OP(=O)(O)O)[C@@H](O)[C@H]1O	P2X purinoceptor 7 (P2rx7, Rattus norvegicus, UniProt Q64663, I214A)	ion current, agonist, two-electrode voltage clamp	Xenopus laevis oocytes	1.23 µM	baseline: highest concentration response	normalized current	0
[N-]=[N+]=NCC(=O)N[C@H]1[C@H]([C@H](O)[C@H](O)CO)O[C@@](O[C@H]2[C@@H](O)[C@@H](CO)O[C@@H](Oc3ccc([N+](=O)[O-])cc3)[C@@H]2O)(C(=O)O)C[C@@H]1O	Sialidase-2 (Homo sapiens, UniProt Q9Y3R4)	substrate	–	10 min, pH 5.0, 37 °C	–	Vmax	0.001 ± 0.0001 mM/s
O=C1Nc2c(ccc(Cl)c2Cl)C1=NO	KCNN4/CALM1 (Homo sapiens, UniProt O15554+P0DP23, V282G)	ion current, whole-cell patch clamp	HEK293 expressing V282G mutant	10 µM, added: 250 nM intracellular calcium	–	current change	no effect
NCCS	uncharacterized protein (Pelagibacter ubique, UniProt Q4FMK2)	differential scanning fluorimetry	Candidatus Pelagibacter ubique	concentration not given	higher = stronger binding	ΔTm	6.43 °C
CCCCC[S+]([O-])c1n[nH]c(N)n1 (stereo not drawn)	Transcription intermediary factor 1-beta, PHD-bromodomain (TRIM28, Homo sapiens, UniProt Q13263)	binding, affinity selection mass spectrometry	–	–	baseline: other proteins in batch	fold enrichment	0.874
CCOc1ccc(NC(=O)O[C@H](Cn2nc(C(C)C)cc2C(C)C)C(C)C)cc1	Neuronal acetylcholine receptor; alpha4/beta2, (α4)2(β2)3 stoichiometry (Homo sapiens, UniProt P17787+P43681)	ACh-evoked current, two-electrode voltage clamp	–	1 µM, high-sensitivity stoichiometry, added: ACh 1 µM	baseline: ACh alone	current	86 ± 5%
Cn1cc(-c2ccc(-c3cncc(Cl)c3N3CCC4(CCNC4=O)CC3)cc2)cn1	COLO 205	gene expression, microarray, refers to: EDN1 mRNA	–	concentration not given, 2 h	baseline: untreated cells	log2 fold change	2.01
Cc1ncsc1-c1ccc(CNC(=O)[C@@H]2C[C@@H](O)CN2C(=O)[C@@H](NC(=O)C2(F)CC2)C(C)(C)C)c(OCCOCCOCCN2CCN(c3cc(-c4ccccc4O)nnc3N)CC2)c1	SMARCA4 (Homo sapiens, UniProt P51532)	ternary complex binding, AlphaLISA competition	HEK293 cell lysate	added: full-length VCB	baseline: binary IC50 over ternary IC50	cooperativity factor alpha	3.8
CC(=C/C(=O)O)/C=C/C=C(\C)C1C=C2C(C)(C)CCCC2(C)O1 (stereo not drawn)	Rhodopsin (RHO, Homo sapiens, UniProt P08100, P23H)	ER retention, immunostaining co-localization, refers to: opsin with calnexin	COS-7 transfected P23H	30.00 µM	–	Pearson correlation coefficient	0.55
NCCCCC(=O)O	SLC6A6 (Homo sapiens, UniProt P31641, Y138A)	binding, microscale thermophoresis	–	40.3 nM, fitted curve	higher = more binding	fraction bound	0
